Measurements pooled from the literature.
Each line is one published result; not all experiments were run side by side.
Organism: Pseudomonas aeruginosa

| Substance | assay | system | setting | how to read | MIC |
| --- | --- | --- | --- | --- | --- |
| C[C@H]1COc2c(N3CCN(C)CC3)c(F)cc3c(=O)c(C(=O)O)cn1c23 |  | ATCC 27853 |  | ≥80% growth inhibition | 3.62 µg/mL |
| O=C(Nc1ccc(F)c(F)c1)c1cc(Cl)ccc1O | microbial growth, broth dilution | ATCC27853 |  |  | > 64 µg/mL |
| Cc1cc(C)n(C(N)=S)n1.Cc1ccc(C(C)C)cc1.[Cl][Ru][Cl] | broth microdilution | ATCC 25619 | 37 °C |  | > 1000 µg/mL |
| CCc1cc(=O)c2c(OCC(O)CN3CCC(C)CC3)c3ccoc3c(OC)c2o1 (stereo not shown) | broth microdilution | ATCC 15442 | 19 h, 35 °C |  | > 256 µg/mL |
| O=C(Nc1ccccc1F)c1cc(Cl)ccc1O | microbial growth, broth dilution | ATCC27853 |  |  | > 64 µg/mL |
| gentamicin |  | ATCC 27853 | 18 h, pH 7 |  | 0.5 µg/mL |
| CC(C)C[C@H](NC(=O)CNC(=O)[C@H](C)NC(=O)c1ccc(S(=O)(=O)NC[C@H]2O[C@@H](C)[C@@H](O)[C@@H](O)[C@@H]2O)cc1)C(=O)N[C@@H](C)C(=O)NC[C@@H]1CCN(c2cc3c(cc2F)c(=O)c(C(=O)O)cn3C2CC2)C1 | broth microdilution | PA14, human plasma with P. aeruginosa supernatant | 50% plasma, 10% supernatant, preincubation under 10 min |  | 3.13 to 6.25 µM |
| CC[C@H](C)[C@H](NC(=O)[C@H](Cc1c[nH]cn1)NC(=O)[C@H](Cc1c[nH]cn1)NC(=O)[C@H](Cc1ccccc1)NC(=O)[C@@H](N)Cc1ccccc1)C(=O)N[C@@H](Cc1ccccc1)C(=O)N[C@@H](CCCNC(=N)N)C(=O)NCC(=O)N[C@@H](CCCCN)C(=O)N[C@H](C(=O)N[C@@H](Cc1c[nH]cn1)C(=O)N[C@H](C(=O)NCC(=O)N[C@@H](CCCCN)C(=O)N[C@H](C(=O)N[C@H](C(=O)N[C@@H](Cc1c[nH]cn1)C(=O)N[C@@H](CCCNC(=N)N)C(=O)N[C@@H](CC(C)C)C(=O)N[C@H](C(=O)N[C@H](C(=O)NCC(N)=O)[C@@H](C)O)C(C)C)[C@@H](C)CC)[C@@H](C)O)C(C)C)C(C)C | broth microdilution | ATCC 10662 | 18 h, 37 °C |  | 25 µg/mL |
| Polymyxin B | broth microdilution | PAO1, Mueller-Hinton broth | 18 h, 37 °C |  | 2 µg/mL |
| CC(C)C[C@H](NC(=O)CNC(=O)[C@H](C)NC(=O)c1ccc(S(=O)(=O)NC[C@H]2O[C@@H](C)[C@@H](O)[C@@H](O)[C@@H]2O)cc1)C(=O)N[C@@H](C)C(=O)N[C@H]1CCN(c2cc3c(cc2F)c(=O)c(C(=O)O)cn3C2CC2)C1 | broth microdilution | PA14, human plasma with P. aeruginosa supernatant | 50% plasma, 10% supernatant, preincubation under 10 min |  | 0.78 to 1.56 µM |
| O=C(Nc1ccc(Br)cc1)c1cc(Cl)ccc1O | microbial growth, broth dilution | ATCC27853 |  |  | > 64 µg/mL |
| CC(C)C[C@H](NC(=O)CNC(=O)[C@H](C)NC(=O)c1ccc(S[C@@H]2O[C@H](CO)[C@H](O)[C@H](O)[C@H]2O)cc1)C(=O)N[C@@H](C)C(=O)NC[C@@H]1CCN(c2cc3c(cc2F)c(=O)c(C(=O)O)cn3C2CC2)C1 | broth microdilution | PA14, human plasma with P. aeruginosa supernatant | 50% plasma, 10% supernatant, preincubation under 10 min |  | 3.13 to 12.5 µM |
| CCc1cc(=O)c2c(OCC(O)CNC(C)C)c3ccoc3c(OC)c2o1 (stereo not shown) | broth microdilution | ATCC 15442 | 19 h, 35 °C |  | > 256 µg/mL |
| O=C(Nc1ccc(Br)c(C(F)(F)F)c1)c1cc(Cl)ccc1O | microbial growth, broth dilution | ATCC27853 |  |  | > 64 µg/mL |
| CCc1cc(=O)c2c(O)c3ccoc3c(OC)c2o1 | broth microdilution | ATCC 15442 | 19 h, 35 °C |  | > 256 µg/mL |
| O=C(Nc1ccc(Cl)c(C(F)(F)F)c1)c1cc(Cl)ccc1O | microbial growth, broth dilution | ATCC27853 |  |  | > 64 µg/mL |
| CCc1cc(=O)c2c(OCC(O)CN3CCOCC3)c3ccoc3c(OC)c2o1 (stereo not shown) | broth microdilution | ATCC 15442 | 19 h, 35 °C |  | > 256 µg/mL |
| CC(C)C[C@H](NC(=O)CNC(=O)[C@H](C)NC(=O)c1ccc(S[C@@H]2O[C@H](CO)[C@H](O)[C@H](O)[C@H]2O)cc1)C(=O)N[C@@H](C)C(=O)N[C@H]1CCN(c2cc3c(cc2F)c(=O)c(C(=O)O)cn3C2CC2)C1 | broth microdilution | PA14, human plasma with P. aeruginosa supernatant | 50% plasma, 10% supernatant, preincubation under 10 min |  | 0.195 to 0.39 µM |
| O=C(Nc1ccc(Cl)c(C(F)(F)F)c1)c1ccccc1O | microbial growth, broth dilution | ATCC27853 |  |  | > 64 µg/mL |

For quick reference, copied from above:
| Substance | assay | system | setting | how to read | MIC |
| --- | --- | --- | --- | --- | --- |
| CC(C)C[C@H](NC(=O)CNC(=O)[C@H](C)NC(=O)c1ccc(S(=O)(=O)NC[C@H]2O[C@@H](C)[C@@H](O)[C@@H](O)[C@@H]2O)cc1)C(=O)N[C@@H](C)C(=O)NC[C@@H]1CCN(c2cc3c(cc2F)c(=O)c(C(=O)O)cn3C2CC2)C1 | broth microdilution | PA14, human plasma with P. aeruginosa supernatant | 50% plasma, 10% supernatant, preincubation under 10 min |  | 3.13 to 6.25 µM |
| CC[C@H](C)[C@H](NC(=O)[C@H](Cc1c[nH]cn1)NC(=O)[C@H](Cc1c[nH]cn1)NC(=O)[C@H](Cc1ccccc1)NC(=O)[C@@H](N)Cc1ccccc1)C(=O)N[C@@H](Cc1ccccc1)C(=O)N[C@@H](CCCNC(=N)N)C(=O)NCC(=O)N[C@@H](CCCCN)C(=O)N[C@H](C(=O)N[C@@H](Cc1c[nH]cn1)C(=O)N[C@H](C(=O)NCC(=O)N[C@@H](CCCCN)C(=O)N[C@H](C(=O)N[C@H](C(=O)N[C@@H](Cc1c[nH]cn1)C(=O)N[C@@H](CCCNC(=N)N)C(=O)N[C@@H](CC(C)C)C(=O)N[C@H](C(=O)N[C@H](C(=O)NCC(N)=O)[C@@H](C)O)C(C)C)[C@@H](C)CC)[C@@H](C)O)C(C)C)C(C)C | broth microdilution | ATCC 10662 | 18 h, 37 °C |  | 25 µg/mL |
| Polymyxin B | broth microdilution | PAO1, Mueller-Hinton broth | 18 h, 37 °C |  | 2 µg/mL |
